Results gathered from unrelated publications.
Protocols differ between the studies behind these lines. “And” joins repeats or separate records; there may be more than shown.

Structure (SMILES)	cell line	assay	conditions	how to read	viability
Nc1ncnc2c1ncn2[C@@H]1O[C@H](CO)[C@@H](O)[C@H]1O	activated human T cells		100 nM, 72 h	higher = more viable cells	81.3 a.u. and 82.9 a.u. and 86 a.u.
Cc1cccc(-c2[nH]c(CNc3ccccc3F)nc2-c2ccc3ncnn3c2)n1	MM1.S pomalidomide-resistant	XTT	1.5 µM	reference: untreated	45%
COc1cc2ncnc(Nc3ccc(Oc4ccccc4)cc3C)c2cc1OC	MeWo (NF1)	resazurin	0.1 µM, 72 h, with: trametinib 0 nM		99.7%
CC1(C)CCC(CN2CCN(c3ccc(C(=O)NS(=O)(=O)c4ccc(NCC5CCOCC5)c([N+](=O)[O-])c4)c(Oc4cnc5[nH]ccc5c4)c3)CC2)=C(c2ccc(Cl)cc2)C1	mouse BMDM	CellTiter-Glo	concentration not given		11.9% and 12.8%
COc1ccc(-n2nc(C(C)=O)s/c2=N\N=C(/C)c2ccc(NC(=O)c3ccc(C)cc3)cc2)cc1	HepG2		1.25 µM		13.4%
Cc1ccc(CNC(=O)Cn2cc(CSc3nc4ccccc4[nH]3)nn2)cc1	Caco-2	MTT	500 ppm		9.13%
Nc1cccc2c1C(=O)N(C1CCC(=O)NC1=O)C2=O (centres unmarked)	MM1.S	XTT	0.2 µM		86% and 61% and 59%
COc1ccc(-n2nc(C(C)=O)s/c2=N\N=C(/C)c2ccc(NC(=O)c3ccccc3)cc2)cc1	MCF7		2.5 µM		2.54%
